# Experimental data pooled from the literature.
# Compare with care: the assays were run in different laboratories. “And” joins repeats or separate records; there may be more than shown. ± gives the spread as reported.
Compound,target,test,system,conditions,scale,quantity,value
CC(=O)NCCN(CCC(=O)NCCN(CCC(=O)NCCN(CCC(=O)NCCC(N)=O)C(=O)[C@@H](N)Cc1ccccc1)C(=O)[C@@H](N)CCCNC(=N)N)C(=O)[C@@H](N)CCCNC(=N)N,HIV-1 TAR RNA,"RNA thermal stability, UV melting",,"5 µM, pH 7.5, together with: 1 µM TAR RNA",,melting temperature,61.7 ± 0.1 °C
O=C(N/N=C/c1ccc2c(ccc[n+]2Cc2ccccc2)c1)c1cccc(C(=O)N/N=C/c2ccc3c(ccc[n+]3Cc3ccccc3)c2)c1,MYC parallel G4 DNA,FRET melting,,"1 µM, DNA 0.2 µM",,ΔTm,8.5 ± 0.3 °C
Cc1cnc2nc1Nc1cccc(c1)COC/C=C/COCc1cc(ccc1OCCN1CCOCC1)N2,FLT3 ITD,kinase binding panel,,concentration not given,,remaining binding,7.9%
O=C(N/N=C/c1ccc2c(ccc[n+]2Cc2ccccc2)c1)c1cccc(C(=O)N/N=C/c2ccc3c(ccc[n+]3Cc3ccccc3)c2)n1,hp2 hairpin duplex DNA,FRET melting,,"1 µM, together with: ds26 10 µM",,ΔTm,2.2 ± 0.4 °C
CC(=O)NCCN(c1nc(NCc2n[nH]c3c2CCCC3)nc(N2CC3C(CCOc4cc(-c5scnc5C)ccc4CNC(=O)[C@@H]4C[C@@H](O)CN4C(=O)[C@@H](NC(=O)C4(F)CC4)C(C)(C)C)C3C2)n1)C(C)C (stereo partly drawn),VHL-elongin C-elongin B and BRD9,SPR,immobilized VHL-elongin C-elongin B,,baseline: binary KD over ternary KD,cooperativity alpha,90
O=C(Nc1ccccc1)c1ccc(Nc2nnc(-c3ccc(O)cc3)c3ccccc23)cc1,TRPV1,nocifensive response,mouse,"intraplantar, 1 µg",,licking time,0 s
CCN1CCN(Cc2ccc(C(=O)Nc3ccc(C)c(NCc4cnc5[nH]ccc5c4OC)c3)cc2C(F)(F)F)CC1,FLT3 ITD,KINOMEscan,,1 µM,baseline: control,remaining binding,5%
C[n+]1ccc(/C=N/NC(=O)c2cc(C(=O)N/N=C/c3cc[n+](C)c4ccccc34)ncn2)c2ccccc21,hp2 hairpin duplex DNA,FRET melting,,"1 µM, together with: ds26 10 µM",,ΔTm,0.3 ± 0.3 °C
C=CC(=O)N1[C@@H](c2ccc3c(c2)OCO3)c2[nH]c3ccccc3c2C[C@H]1C(=O)N1CCN(C)CC1,CCNE1 WT-3xFLAG:CDK2 complex,"co-IP TMT proteomics, item: RBL1",HEK-293T,"20 µM, 6 h",baseline: DMSO,log2 fold change,0.07
O=C(N/N=C/c1ccc2c(ccc[n+]2Cc2ccccc2)c1)c1cncc(C(=O)N/N=C/c2ccc3c(ccc[n+]3Cc3ccccc3)c2)n1,hp2 hairpin duplex DNA,FRET melting,,1 µM,,ΔTm,2.5 ± 0.1 °C
CNC(NN=Cc1ccc([N+](=O)[O-])o1)=[S+][Au-][Cl],calf thymus DNA,"ethidium bromide displacement, fluorescence quenching",,up to 50 µM,,log KSV,4.3
C/C=C(/C)C(=O)OC[C@H]1[C@@H](Cc2ccc(C(C)(C)C)cc2)CO[C@@H]1c1ccc(OC)c(OC)c1,NF-κB,reporter gene,HEK293/NF-κB-luc,"4 h, together with: TNFα 2 ng/mL",,IC50,≥ 20 µM
CC(=O)NCCN(c1nc(N2CC3C(CCOc4cc(-c5scnc5C)ccc4CNC(=O)[C@@H]4C[C@@H](O)CN4C(=O)[C@@H](NC(=O)C4(F)CC4)C(C)(C)C)C3C2)nc(N2CC(n3ccnc3)C2)n1)C(C)C (stereo partly drawn),VHL-elongin C-elongin B and BRD9,SPR,immobilized VHL-elongin C-elongin B,,baseline: binary KD over ternary KD,cooperativity alpha,30
CCCCCC(O)/C=C/C=O (stereo not drawn),cysteine-reactive proteome,"iodoacetamide probe labelling, competitive isoTOP-ABPP","MDA-MB-231, cell proteome",,,IC50,132 µM and 201 µM and 199 µM and 196 µM and 190 µM and 345 µM and 239 µM and 163 µM
O=C(N/N=C/c1cc[n+](CC2CC2)c2ccccc12)N/N=C/c1cc[n+](CC2CC2)c2ccccc12,hp2 hairpin duplex DNA,FRET melting,,1 µM,,ΔTm,1.8 ± 0.4 °C
CC(=O)NCC1CCCCN1c1nc(NCC2Cc3ccccc3O2)nc(N2CC3C(CCOc4cc(-c5scnc5C)ccc4CNC(=O)C4CC(O)CN4C(=O)C(NC(=O)C4(F)CC4)C(C)(C)C)C3C2)n1 (stereo not drawn),VHL-elongin C-elongin B and BRD9,SPR,immobilized VHL-elongin C-elongin B,,baseline: binary KD over ternary KD,cooperativity alpha,219
C=CC(=O)Nc1cccc(Cn2ncc3cnc(Nc4cnn(CCOC)c4)nc32)c1,DCAMKL2 human,"binding, KINOMEscan",,100 nM,lower = stronger binding,percent of control,100%
O=C(N/N=C/c1ccc2c(ccc[n+]2Cc2ccccc2)c1)N/N=C/c1ccc2c(ccc[n+]2Cc2ccccc2)c1,MYC parallel G4 DNA,FRET melting,,"1 µM, DNA 0.2 µM",,ΔTm,8.8 ± 1.1 °C
Nc1ncc(-c2cc(-c3cnn(CC(F)(F)F)c3)ncc2F)nc1C(=O)NC1CNCC(F)C1 (stereo not drawn),FGFR3,KINOMEscan,,1 µM,baseline: DMSO control,remaining binding,91%
O=C(Nc1cccc(C(=O)N2CCC(c3nc(-c4ccccc4)n[nH]3)CC2)c1)c1ccccc1,FSP1 F15A mutant,"resazurin reduction, inhibitor",,"pH 7.2, together with: 50 µM resazurin, NADH",,IC50,3.03 ± 0.08 µM
C[n+]1ccc(/C=N/NC(=O)N/N=C/c2cc[n+](C)c3ccccc23)c2ccccc21,MYC parallel G4 DNA,FRET melting,,"1 µM, DNA 0.2 µM",,ΔTm,2.9 ± 0.9 °C
CCCCCCc1cccc([C@H](O)C[C@H](CO)NC(=O)CCCCCCCCCCBr)c1,CERT,"HPLC-MS/MS, item: total sphingomyelin",HeLa,"1 µM, 24 h",,sphingomyelin level,959000 pmol/sample and 945000 pmol/sample and 728000 pmol/sample
Fc1ccc(Nc2nc(NC3CCCCC3)c3ccccc3n2)cc1F,β2AR/β1AR ECL2/3 chimera,"β-arrestin2 recruitment, antagonist, BRET",,,baseline: isoprenaline maximal response,maximal inhibition,-8.8%
CCCCCCCCCCCC(=O)N[C@@H](CO)C[C@@H](O)c1cccc(CCCCCC)c1,CERT,"HPLC-MS/MS, item: SM C16",HeLa,"1 µM, 24 h",,sphingomyelin level,502000 pmol and 591000 pmol and 515000 pmol
c1ccc(-c2n[nH]cc2-c2ccnc3ccccc23)nc1,KIN28 (Candida albicans),"kinase binding, MIB/MS competition",Candida albicans lysate,1 µM,baseline: DMSO,log2 fold change,-0.46
O=C(N/N=C/c1cc[n+](Cc2ccccc2)c2ccccc12)c1cc(C(=O)N/N=C/c2cc[n+](Cc3ccccc3)c3ccccc23)ncn1,MYC parallel G4 DNA,FRET melting,,"1 µM, DNA 0.2 µM",,ΔTm,6.2 ± 0.6 °C
O=C(CCCCCOc1ccc2ccccc2c1)N[C@@H](CO)C[C@@H](O)c1ccc(-c2ccccc2)cc1,CERT,"HPLC-MS/MS, item: total sphingomyelin",HeLa,"1 µM, 24 h",,sphingomyelin level,958000 pmol/sample and 944000 pmol/sample and 866000 pmol/sample

# Repeated from above:
Compound,target,test,system,conditions,scale,quantity,value
c1ccc(-c2n[nH]cc2-c2ccnc3ccccc23)nc1,KIN28 (Candida albicans),"kinase binding, MIB/MS competition",Candida albicans lysate,1 µM,baseline: DMSO,log2 fold change,-0.46
O=C(N/N=C/c1cc[n+](Cc2ccccc2)c2ccccc12)c1cc(C(=O)N/N=C/c2cc[n+](Cc3ccccc3)c3ccccc23)ncn1,MYC parallel G4 DNA,FRET melting,,"1 µM, DNA 0.2 µM",,ΔTm,6.2 ± 0.6 °C
